Assay results of several laboratories.
Protocols differ between the studies behind these lines. Several values in a cell are separate wells, animals, samples, runs or records. Numbers after ± are the reported error.

CCn1cc(-c2cc(Cn3ccoc3=N)cc3c2CCN([C@@H](C)c2cc(OC)ccn2)C3=O)c(C(F)(F)F)n1 — EC50 (GP2d; cell growth, inhibitor; 120 h): 0.901 µM
CC(C)C[C@@H](C=O)NC(=O)[C@H](CC(C)C)NC(=O)[C@H](CC(C)C)NC(=O)OCc1ccccc1 — FLuc activity (HEK293; refers to: CD4 signal peptide-FLuc reporter; concentration not given, 3 h, time-course chase, unit not given, together with: cycloheximide; baseline: untreated): 1.14
Cc1cn(-c2cc(NC(=O)c3ccc(C)c(Nc4nccc(-c5cccnc5)n4)c3)cc(C(F)(F)F)c2)cn1 — cell index (iCell Cardiomyocytes (hiPSC-derived); cellular impedance; concentration not given, 24 h; baseline: control): 103%
O=C(/C=C/C=C/C=C/C1CCCCC1)NC1=C[C@@](O)(/C=C/C=C/C=C/C(=O)NC2=C(O)CCC2=O)[C@@H]2O[C@@H]2C1=O — GI50 (HCC1500; cell growth, CellTiter-Glo; 78 h): 9.77 µM
Cn1cc(-c2ccc(F)c(C(F)(F)F)c2)nc1C1CCN(c2ncnc3[nH]ncc23)CC1 — relative cell number (SK-OV-3; ATP; 2D monolayer culture; 0.1 µM, 4 days; baseline: untreated): 103%
C=CCNC1=C2C[C@@H](C)C[C@H](OC)[C@H](O)[C@@H](C)/C=C(\C)[C@H](OC(N)=O)[C@@H](OC)/C=C\C=C(/C)C(=O)NC(=CC1=O)C2=O — fibulin-3 level (ARPE-19 HiBiT fibulin-3; HiBiT luminescence; 1.66 µM): -36%
Cc1cccc(-c2[nH]c(CNc3ccccc3F)nc2-c2ccc3ncnn3c2)n1 — viability (MM1.S pomalidomide-resistant; XTT; 3 µM): 18% and 16% and 30%
C=CC(=O)N1CCC[C@@H](n2nc(-c3ccc(Oc4ccccc4)cc3)c3c(N)ncnc32)C1 — maximum inhibition (Ramos; calcium flux, FLIPR; 2 h preincubation): 84.4%
CCc1cnc(N2CCC(c3nc(COc4ccc(-n5cnnn5)cc4)cs3)CC2)nc1 — log2 fold change (HEK293T; RNA-seq, refers to: ASNS mRNA; 10 µM, 6 h; baseline: vehicle): 1.11
COc1ccc2c(N(C)c3ccc(/C(C)=N/OCCN)cc3)c3c(Cl)coc3nc2c1 — soft agar colony reduction (LNCaP C-81; 1 µM): 50%
CC(C)(C)c1cnc(CSc2cnc(NC(=O)C3CCN(C(=O)CCCCCCCN4Cc5cc6c(cc5C4)C(=O)N(C4CCC(=O)NC4=O)C6=O)CC3)s2)o1 (stereo not shown) — number of downregulated genes (TC-71; RNA-seq; 10 nM, 8 h): > 2600 genes
COc1ccc(C[C@@H]2c3cc(Oc4cc(C[C@@H]5c6cc(O)c(OC)cc6CCN5C)ccc4O)c(OC)cc3CCN2C)cc1 — inhibition (3T3-L1; adipocyte lipid accumulation, Nile Red staining; 5 µM): 29.1 ± 0.7%
CCC(=O)N1CCC(COCC(=O)N2CCN(c3nc(-c4cnc(N)nc4C(F)F)nc(N4CCOC[C@@H]4C)n3)CC2)CC1 — IC50 (T47D; Akt phosphorylation, inhibitor, in-cell western, refers to: Akt pSer473; 2 h): 0.0434 µM
Cn1cc(-c2ccc(-c3cncc(Cl)c3N3CCC4(CCNC4=O)CC3)cc2)cn1 — log2 fold change (COLO 205; gene expression, microarray, refers to: CAPG mRNA; concentration not given, 2 h; baseline: untreated cells): 2.09
CSC(=O)c1cccc2nnsc12 — maximal ROS response (HepaRG; ROS-Glo): -87.4 ± 16.9%
c1cnc2c(c1)ccc1cccnc12 — TNF-α mRNA level (differentiated THP-1; 25 µg/mL; baseline: untreated): decreased
C=CCn1c(=O)c2cnc(Nc3ccc(N4CCN(C)CC4)cc3)nc2n1-c1ccc2c(n1)[C@@](O)(CC)CC2 — γH2AX-positive cells (MDA-MB-231; flow cytometry; 1 µM, 24 h): 18.1%
CCCCc1nc(Cl)c(CO)n1Cc1ccc(-c2ccccc2-c2nn[nH]n2)cc1 — log2 fold change (human PBMC; RNA-seq, refers to: DLL1 mRNA; 10 µg/mL, 24 h; baseline: untreated control): 1.5
O=C(O)c1ccc(-c2c[nH]c3ncc(-c4ccccc4)cc23)cc1C1CCCC1 — relative cell number (SK-OV-3; ATP; 0.01 µM, 4 days, 3D gellan gum culture; baseline: untreated): 101%
C=CC(=O)Nc1cc2c(Nc3ccc(F)c(Cl)c3)ncnc2cc1OCCCN1CCOCC1 — beat rate (iCell Cardiomyocytes (hiPSC-derived); xCELLigence Cardio impedance; concentration not given, 2 h; baseline: control): 90.7%
C[C@H]1CN(C2COC2)CCN1c1ccc(Nc2cc(-c3ccnc(N4CCn5c(cc6c5CC(C)(C)C6)C4=O)c3CO)cn(C)c2=O)nc1 — maximum inhibition (Ramos; calcium flux, FLIPR; 1 h preincubation): 97.4%
CC[C@@H]1C(=O)N(C)c2cnc(Nc3ccc(C(=O)NC4CCN(C)CC4)cc3OC)nc2N1C1CCCC1 — beat amplitude (iCell Cardiomyocytes (hiPSC-derived); xCELLigence Cardio impedance; concentration not given, 2 h; baseline: control): 104%
CSc1cc(Oc2ccnc3[nH]c(=O)cnc23)ccc1NC(=O)Nc1cc(C(C)(C)C)nn1-c1ccccc1 — phospho ratio (patient-derived cells; RPPA, refers to: phosphorylated HER3; 1 µM, 4 h, mean of three patients; baseline: DMSO): 0.66
Oc1cccc(-c2nc(N3CCOCC3)c3oc4ncccc4c3n2)c1 — cell index (iCell Cardiomyocytes (hiPSC-derived); cellular impedance; concentration not given, 24 h; baseline: control): 82.5%
COc1cc2ncnc(Cc3cccc(-c4ccncc4)c3)c2cc1OC — inhibition (A549; mitochondrial oxygen consumption, Seahorse XF96; 10 µM): 8%
COc1cnc2cccc(N3CCc4c(cc(Cn5ccnc5C)cc4-c4cn(C)nc4C(F)(F)F)C3=O)c2c1 — EC50 (GP2d; cell growth, inhibitor; 120 h): 17.3 µM
Cc1ccc(-n2nc(C(C)(C)C)cc2NC(=O)Nc2ccc(OCCN3CCOCC3)c3ccccc23)cc1 — ATP level (iCell Cardiomyocytes (hiPSC-derived); CellTiter-Glo; concentration not given, 24 h; baseline: control): 97.6%
C=CC(=O)N1CCC[C@@H](c2ccc(C(N)=O)c3[nH]ccc23)C1 — IC50 (TMD8 RAC2 knockout; calcium flux, FLIPR; 2 h preincubation): 0.019 µM
CC(C)(c1ccc(O)cc1)c1ccc(O)cc1 — G1 phase cells (HepG2 spheroids; Hoechst flow cytometry; 1 µM, 24 h): 71.2 ± 3.6%
C#Cc1cccc(Nc2ncnc3cc(OCCOC)c(OCCOC)cc23)c1 — beat amplitude (iCell Cardiomyocytes (hiPSC-derived); xCELLigence Cardio impedance; concentration not given, 2 h; baseline: control): 96.8%
COc1ccc(NC(=S)N/N=C/c2ccc(N3CCC(O)CC3)cc2)cc1 — selectivity ratio (BEAS-2B and A549; MTT; baseline: IC50 BEAS-2B over IC50 A549): 3.4
CCn1c(-c2nonc2N)nc2cncc(CNC3CCNCC3)c21 — relative cell number (SK-OV-3; ATP; 2D monolayer culture; 0.01 µM, 4 days; baseline: untreated): 119%
Cc1cc2c(F)c(Oc3ncnn4cc(OC[C@@H](C)O)c(C)c34)ccc2[nH]1 — beat rate (iCell Cardiomyocytes (hiPSC-derived); xCELLigence Cardio impedance; concentration not given, 2 h; baseline: control): 71%
C[C@H]1Oc2cc(cnc2N)-c2c(nn(C)c2C#N)CN(C)C(=O)c2ccc(F)cc21 — Emax (Ba/F3 EML4-ALK variant 1 E1210K; cell viability): 100%
[Cl-].[Cl-].[Os+2].c1cnc2c(c1)ccc1cccnc12.c1cnc2c(c1)ccc1cccnc12.c1cnc2c(c1)ccc1cccnc12 — TGI (SK-MEL-28; cell growth, SRB; green light 523 nm, normoxia): 49.3 µM
CCCCc1oc2ccc(NS(C)(=O)=O)cc2c1C(=O)c1ccc(OCCCN(CCCC)CCCC)cc1 — fold change (human embryonic stem cell aggregates; mRNA level, microarray, refers to: KCNK10; 0.5 µM, 120 h; baseline: untreated, up-regulated): 4 fold
CCn1cc(-c2cc(Cn3ccnc3)cc3c2CCN([C@H](c2cc(OC)ccn2)C2CC2)C3=O)c(C(F)(F)F)n1 — EC50 (SKMEL31; cell growth; 120 h): > 30 µM
CC(C)NCC(O)c1ccc(O)c(O)c1 (stereo not shown) — sarcomere length (mouse ventricular cardiomyocytes; dose not given, 0.195 s): 1.71 µm
CNC(=O)c1ccccc1Sc1ccc2c(/C=C/c3ccccn3)n[nH]c2c1 — cell index (iCell Cardiomyocytes (hiPSC-derived); cellular impedance; concentration not given, 24 h; baseline: control): 102%
CN1CCN(c2ccc3[nH]c(-c4ccc5[nH]c(-c6ccc(C(F)(F)F)cc6)nc5c4)nc3c2)CC1 — growth percent (NCI/ADR-RES; cell growth, NCI-60 SRB; 10 µM, 48 h): 102%
